Published values from different studies.
pEC50, pIC50: −log10 of the molar value.
Organism: Toxoplasma gondii

With `CC1(C)CC(=NNC(=O)c2ccncc2)CC(C)(C)C1=O` the pIC50 was less than 4.00 (parasite growth, fluorescence; 5 days, intracellular).
With `CC(/C=C/C(=O)NO)=C\[C@@H](C)C(=O)c1ccc(N(C)C)cc1` the pEC50 was 6.40 (intracellular growth, [3H]uracil incorporation; HFF, RH wild type).
`N#CSCCOc1ccc(Oc2cccc([N+](=O)[O-])c2)cc1` gave a pIC50 of 5.70 (hTERT fibroblasts, RFP-expressing tachyzoites).
`COc1ccc(CNCCCCCCCCCCCCNCc2ccc(OC)cc2)cc1` gave an inhibition of no less than 75% (human foreskin fibroblasts; 1 µM; reference: untreated).
The pIC50 of `Cc1ccc(C(=O)NN=C2C=C(C(C)(C)C)C(=O)C(C(C)(C)C)=C2)cc1` is reported as 5.70 (parasite growth, fluorescence; 5 days, intracellular).
`CC1(C)COC(c2ccc(-c3cn(C45CC6CC(CC(C6)C4)C5)nn3)cc2)OC1` — result for “brain cyst number”: roughly 20 cysts per brain (ME49, male Brown Norway rats; intraperitoneal, 3 mg/kg daily for 14 days).
`Cc1cc(O)c2c(=O)cc(-c3ccc(N(C)C)cc3)oc2c1-c1c(C)cc(O)c2c(=O)cc(-c3ccc(N(C)C)cc3)oc12` gave a pIC50 of less than 4.30 (parasite proliferation, 3H-uracil incorporation; HS27 host cells, ME49 tachyzoites).
For `CC[C@H]1OC(=O)[C@H](C)[C@@H](O[C@H]2C[C@@](C)(OC)[C@@H](O)[C@H](C)O2)[C@H](C)[C@@H](O[C@@H]2O[C@H](C)C[C@H](N(C)C)[C@H]2O)[C@](C)(O)C[C@@H](C)CN(Cc2ccccc2)[C@H](C)[C@@H](O)[C@]1(C)O`, “parasitophorous vacuole density” read “decreased” (10 µM, 24 h post-infection).
With `COc1cc(OC)c2c(=O)cc(-c3ccc(Br)cc3)oc2c1-c1c(OC)cc(OC)c2c(=O)cc(-c3ccc(Br)cc3)oc12` the pIC50 was 5.64 (parasite proliferation, 3H-uracil incorporation; HS27 host cells, ME49 tachyzoites).
For `CC(C)(C)C1=CC(=NNC(=O)c2c[nH]cn2)C=C(C(C)(C)C)C1=O`, the pIC50 was 4.40 (parasite growth, fluorescence; 5 days, intracellular).
`COc1ccc(Oc2cccc(OCCSC#N)c2)cc1` has a pIC50 of 5.54 (hTERT fibroblasts, RFP-expressing tachyzoites).
The pIC50 of `Nc1ccc(S(=O)(=O)Nc2ncccn2)cc1` is reported as 4.56 (parasite growth; intracellular).
The pIC50 of `CC(C)(C)c1nn(-c2cc(OCc3cn(Cc4ccccc4[N+](=O)[O-])nn3)c(Cl)cc2Cl)c(=O)o1` is reported as 4.57 to 4.70 (parasite growth, luciferase; 96 h, intracellular).
For `CCc1nc(N)nc(N)c1-c1ccc(Cl)cc1`, the pIC50 was 4.79 (parasite growth; intracellular).
`CC(C)(NC(=O)c1cc2c(Cl)cc(Cl)cc2[nH]1)c1cn(Cc2ccc(Cl)c(Cl)c2)nn1` — result for “brain cyst number”: roughly 20 cysts per brain (ME49, male Brown Norway rats; intraperitoneal, 4 mg/kg daily for 14 days).
The inhibition of `COc1cc(CNCCCNCc2ccc(OCc3ccccc3)c(OC)c2)ccc1OCc1ccccc1` is reported as no less than 75% (human foreskin fibroblasts; 1 µM; reference: untreated).
